Results pooled from the literature.
Numbered parts are unrelated; each lists some results of a single study. Substitutions count along the parent as printed.

Sample 1
Target: RNA binding protein fox-1 homolog 2, RRM domain, GST-SBP tag (RBFOX2, Homo sapiens, UniProt O43251-10, residues 100-194)
Technique: RNA Bind-n-Seq
Form: RNA
Medium: in vitro
Tested at: 365 nM
Setting: natural RNA segment, single round, ends assumed
Baseline: no-protein control
Direction: higher = stronger binding
Constant ends, left off below: GGGAGUUCUACAGUCCGACGAUC … UGGAAUUCUCGGGUGCCAA
Residues (chain): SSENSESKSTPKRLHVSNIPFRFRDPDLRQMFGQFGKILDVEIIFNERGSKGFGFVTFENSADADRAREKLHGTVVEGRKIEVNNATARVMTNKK
| Oligonucleotide | RBNS enrichment (R) |
| --- | --- |
| UCCUGCAGGAGCCUGUGGCAUAUUUCCAGCUGGGCAUGCUGAUCCUCCUUGAGACACAGAUGCCUGUGUGAGUCUCCGUUGAUACAAUUCUGAACCCCUCAGGUUCUCUG | 1.2 |
| GUUGUGGCCCUCACUACCAAGCCACGGGCAGCCCAUUUCCAGUAGGAUGGCGGUUUGGAUUUCUUUGCUCAGAGCCAAUGCAGUUGACACAGUGGCUGCUGGGUUACUGU | 0.442 |
| CCAGGACAGGAGCCAUGGCAUGUGGCACAGACCAAUCAGGGACCAGAAAAGAAUGAUGUCCCUUUCCUUGCCAUGUCCUUGAGCCUGUCAGUAAUGAACUGGCUGCAAGG | 3.74 |
| GAUUCACUGUAAGUGUUCUGUGGCCUAACUAGUGAGAGAUGCUUCAAAUAAACUAAGUUUUUAUGAGUACAUCUAUAAGGGUCGAUAUUUCAUUUUAUAAAUAACUAAAU | 0.483 |
| UGGGUUCGGGUCACUGCGGCGACGACUUGCUCAGACUGUCCCGGCGGCCGGAGUGACUUUCUCGCACCCCCUUGCCUGUCCCACCUCGCUGAACACCAUCCCGCCAUUAG | 0.293 |
| UAAUUCAUUCUCAGCCAAUGAAGGUUUGUCUAAGCUGCCUGGGUAUCCACGGGACAAAAACAGCAAACUCCCUCAGACUUUGUCCAUGUAUAAACUUGAAGUGGUUGUGU | 0.286 |
| UAUAAUCCCAGCACUUUGGAAGGCCAAGGCAGGAGGAUCACUUGAGGCCAGGAGUUCGAGACCAGCCUGAGCAACAUGGUGAGACCCUGUCUCUACAAAAAAAAAAUUUA | 0.588 |
| GACCUCUUCAAGUUUUAGGGCUGCCCCUGCCAUCCCUAUUGGAGAUUGUGAAUCCUGCUGUCUGUGCAGGGCUCAUAGUGAGUGUUCUGUGAGGUGGGUGGAGACUCCUC | 0.485 |
| CUGUAAGCCCUUCCCUAUCAGAGACAGUUGCAGAGUAGAGGAUAUUGAGGGGUUGAGGGGUUGAUCUGAGCUGGUGCCACUGCGAGCACAGCCUACAUGGUGAAUCCAGA | 0.459 |
| CUGUAUAUGUUGAAAACGUAAUACCUGUUAAUGUCCUAAUGAAUCACGUUUUGCAGAAAACACCGUAAGAAACACUUCAGUCUUUCUGUAGUUUCCAUGCAUAUUUCACC | 1.46 |
| CCAGGUCCUGUCUCAGCUGCAACCCAUAGAACUGCAGGGCCAGGCUAGGUGCCCCUUGGAUAGAUGGGUGGCCAAGCCCCCUGGCCUGAAGGCCCGUCUCUGCAUCUCUA | 0.773 |
| GUUAACUCUCACUAGGAAUAGCUUUGGCUUAAGAGUCCAGCAGGGGCAACUUCCUGAGAUGAAUGAAGUACAGGAAAAUGAAAGAUUAGAGGGAUGUGUGACGGAAUACA | 3.43 |

Sample 2
Target: Interferon regulatory factor 5, full length, phosphomimetic (IRF5, Homo sapiens, UniProt Q13568-2, residues 1-514, S451D/S453D/S456D/S462D)
Technique: protein-binding microarray
Form: double-stranded DNA, one strand shown
Medium: in vitro
Tested at: 940 nM top
Setting: 60-bp whole probe
Added: salmon DNA 0.4 mg/ml
Baseline: random background probes
Direction: higher = stronger binding
Constant ends, left off below: GCCTAGCAC … GTCTTGATTCGCTTGACGCTGCTG
| Oligonucleotide | fitted relative affinity |
| --- | --- |
| AACAGTTCATGTTTTGGAAAGTGCTAG | 0.0723 z-score |
| TTAGAACTGGGGTATCGATCAGTGCTA | 2.27 z-score |
| ATAGGTATCCTTTTCCTTTAGTGCTAG | 0.859 z-score |
| GACGGACTGGGGTTTCGGGAAGTGCTA | 1.83 z-score |
| TTATGTATCCTTCTCCTTTAGTGCTAG | 0.858 z-score |
| TGAGATCTCAGACTGGATTAGTGCTAG | -0.203 z-score |
| TTAGATATCGGGACTAGATTAGTGCTA | 0.111 z-score |
| TCATAGTTTCTTTTCTTACTGTGCTAG | 3.25 z-score |
| TCATGTCAACTTTCTCTGACTGTGCTA | 0.678 z-score |
| TTAGAGCTCCTCCTTCTCTAAGTGCTA | 0.142 z-score |
| GACGGTATCGGATATCGGGACGTGCTA | 3.77 z-score |
| GACGGTTTCCTATCCCTGACGTGCTAG | 1.48 z-score |
| TTAGGACTGGACTTTGGGTTAGTGCTA | -0.607 z-score |
| GACGGTATCCTTCTTCTGACGTGCTAG | 0.873 z-score |
| TTAGGTATCGGGGTTCGGTTAGTGCTA | 4.49 z-score |
| TTAGGTATTGGGTTTCGGTTAGTGCTA | 7.32 z-score |
| GGCATTTTCGGGTAGATGGCCGTGCTA | 2.62 z-score |
| TTAGGGCTCCTTCTCCTTTAGTGCTAG | -0.0702 z-score |
| GACGGTATCGACTTTGGGGACGTGCTA | 3.92 z-score |
| TGTGGTGCAGCTCCCTCCTCGTGCTAG | -0.533 z-score |
| GACGGACTGGTTCTCCTGACGTGCTAG | -0.28 z-score |
| TTAGGTCTCGTACTGGGTTAGTGCTAG | 0.803 z-score |
| TCACCCCTAGGGGGCAGTATGTGCTAG | 0.693 z-score |

Sample 3
Target: CCNF, cyclin fold, Cln2 fusion (human)
Technique: yeast growth competition, sequencing
Medium: yeast
Setting: strong parent motif
Baseline: not given
Direction: higher = stronger binding
Starting sequence: CDC6 docking peptide (human); TLKGRRLVFDNQL
| Variant | normalised enrichment score |
| --- | --- |
| T1E | 8.32 |
| D10Q | 6.52 |
| R5N | 0.477 |
| R5T | 4.46 |
| R6F | 4.64 |
| T1M | 11.4 |
| D10F | 8.97 |
| T1R | 9.76 |
| Q12Y | 10.1 |
| T1Y | 9.49 |
| R5E | 0.454 |
| N11H | 8.3 |
| L2I | 8.53 |
| D10I | 7.99 |

Sample 4
Target: Sal-like protein 4, full length isoform A (SALL4, Homo sapiens, UniProt Q9UJQ4, residues 1-1053)
Chain of UniProt Q9UJQ4 (whole entry, looked up): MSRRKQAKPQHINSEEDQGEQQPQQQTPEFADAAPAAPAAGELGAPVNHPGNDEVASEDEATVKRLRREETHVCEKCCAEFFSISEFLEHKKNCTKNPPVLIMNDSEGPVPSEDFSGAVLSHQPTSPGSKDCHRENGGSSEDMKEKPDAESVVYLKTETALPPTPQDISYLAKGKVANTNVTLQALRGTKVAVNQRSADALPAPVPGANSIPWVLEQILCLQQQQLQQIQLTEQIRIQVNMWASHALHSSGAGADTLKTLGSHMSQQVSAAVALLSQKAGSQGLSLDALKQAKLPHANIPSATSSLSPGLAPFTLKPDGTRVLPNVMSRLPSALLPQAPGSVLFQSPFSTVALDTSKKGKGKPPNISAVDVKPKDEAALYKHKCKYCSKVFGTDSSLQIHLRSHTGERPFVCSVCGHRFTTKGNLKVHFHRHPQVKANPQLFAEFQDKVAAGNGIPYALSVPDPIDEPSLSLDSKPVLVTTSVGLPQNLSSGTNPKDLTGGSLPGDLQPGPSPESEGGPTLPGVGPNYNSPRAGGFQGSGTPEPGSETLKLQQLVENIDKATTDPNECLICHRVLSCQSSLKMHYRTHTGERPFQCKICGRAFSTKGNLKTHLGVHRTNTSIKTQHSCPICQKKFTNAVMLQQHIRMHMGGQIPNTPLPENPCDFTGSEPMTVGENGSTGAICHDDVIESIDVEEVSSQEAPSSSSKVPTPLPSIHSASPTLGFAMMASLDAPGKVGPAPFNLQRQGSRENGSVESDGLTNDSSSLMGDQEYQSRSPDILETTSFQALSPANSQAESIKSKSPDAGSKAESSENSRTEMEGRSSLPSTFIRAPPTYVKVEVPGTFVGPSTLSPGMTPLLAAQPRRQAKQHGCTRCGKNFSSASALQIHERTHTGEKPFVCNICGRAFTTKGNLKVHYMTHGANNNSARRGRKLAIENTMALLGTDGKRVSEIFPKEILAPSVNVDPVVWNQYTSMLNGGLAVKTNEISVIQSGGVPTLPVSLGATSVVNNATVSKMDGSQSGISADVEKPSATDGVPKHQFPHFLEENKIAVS
Technique: universal PBM
Form: double-stranded DNA, one strand shown
Medium: in vitro
Tested at: 600 nM
Setting: 8-mer, flanks averaged, mean of replicates
Direction: higher = stronger binding
| Oligonucleotide | E-score |
| --- | --- |
| ACAATAAT | 0.428 |
| CCCACGTC | -0.248 |
| ATTGAAAG | 0.207 |
| CGTCTTCC | -0.155 |
| GTAAAATA | 0.288 |
| ATGCGTGC | 0.0359 |
| CTATCACC | -0.0713 |
| CGAAGCAC | -0.137 |
| CATTCCCA | 0.15 |
| TAGAGGAA | 0.0724 |
| GCATATCC | 0.172 |
| AAAAACCA | 0.241 |
| AGGCGTTG | -0.155 |
| GTAGCTAA | 0.0408 |
| CTGCGCAC | -0.145 |
| ATAAGGGC | 0.0213 |
| CTTGCAGA | -0.0747 |
| CGGAGCCC | -0.433 |
| GACAACTC | -0.0185 |

Sample 5
Target: ABI1, truncated, D143A, DHFR fusion (Arabidopsis thaliana)
Technique: DHFR PCA, deep sequencing
Medium: yeast
Setting: methotrexate growth selection, single substitutions
Added: (+)-ABA 200 µM
Baseline: wild-type fitted maximum
Direction: higher = stronger binding
Starting sequence: PYL1, truncated, DHFR fusion (Arabidopsis thaliana); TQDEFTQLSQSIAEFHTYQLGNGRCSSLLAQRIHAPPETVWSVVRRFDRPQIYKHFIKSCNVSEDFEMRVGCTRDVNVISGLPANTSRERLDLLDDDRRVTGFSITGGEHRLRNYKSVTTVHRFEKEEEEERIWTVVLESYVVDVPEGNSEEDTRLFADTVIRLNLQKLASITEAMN
| Variant | relative binding score |
| --- | --- |
| K116V | 64.9% |
| V145L | 83.5% |
| L20C | 105% |
| E64T | 100% |
| L112H | 0.87% |
| C72D | 97.4% |
| P83I | 6.04% |
| V161R | -4.46% |
| R111C | 63.6% |
| K54P | -15.7% |
| N77C | 107% |
| R113D | 86.1% |
| L138A | 28.9% |
| R74V | -6.47% |
| T39E | 100% |
| T120M | 11.4% |
| S63K | 100% |
| I57T | 59.9% |
| E147S | 91.6% |

Further values, each from its own experiment
| Molecule | target | test | test system | setting | scale | endpoint | value |
| --- | --- | --- | --- | --- | --- | --- | --- |
| PhoQ, residues 284 288 289 292 302 303 SLSVQF | PhoP, residues 12 14 15 18 19 TPWLV (Escherichia coli, UniProt P23836) | Sort-seq, refers to: YFP reporter | E. coli | PhoQ-PhoP variant library, added: 10 µM Mg2+ | baseline: high Mg2+ state, higher = stronger signaling | fold induction | 16.9 |

A few entries again (sample 4):
| Oligonucleotide | E-score |
| --- | --- |
| GTAAAATA | 0.288 |
| CTGCGCAC | -0.145 |
| AAAAACCA | 0.241 |
| GTAGCTAA | 0.0408 |
| AGGCGTTG | -0.155 |
| ATTGAAAG | 0.207 |
| GACAACTC | -0.0185 |
| GCATATCC | 0.172 |
| CGTCTTCC | -0.155 |
| CTATCACC | -0.0713 |
| ATGCGTGC | 0.0359 |
